# Measurements gathered from unrelated publications.
# Every numbered part comes from another study and shows a few of its results, in no order. Changes are numbered by the printed parent chain.

# Series 1
# Target: Prothrombin, mature alpha-thrombin (F2, Homo sapiens, UniProt P00734)
# Technique: aptamer microarray, sandwich
# Molecule type: DNA with 2'F-ANA
# Medium: in vitro
# Tested at: 200 nM
# Notes: whole 15-mer aptamer, many near background
# Together with: Cy3 exosite-II aptamer, 400 nM
# Direction: higher = stronger binding
# Strand: GGTTGGTGTGGTTGG
Modification,mean fluorescence intensity [a.u.]
2'F-ANA at 2 3 5 8 9 11 12 13 14,59.5
2'F-ANA at 2 3 6 7,832
2'F-ANA at 1 7 8 10 14,68.1
2'F-ANA at 1 2 9 10 11 12 14 15,53.5
2'F-ANA at 5 6 9 10 11 13 14,44.2
2'F-ANA at 6 12 13 14 15,187
2'F-ANA at 2 4 7 8 10,128
2'F-ANA at 1 2 3 9 11,237
2'F-ANA at 1 2 3 6 7 9 14,90.2
2'F-ANA at 6 10 11 13 14 15,86.9
2'F-ANA at 2 3 4 5 6 7 9 11 12 14 15,51.1
2'F-ANA at 2 3 6 7 10 12 13 15,383
2'F-ANA at 2 3 4 5 8 9 10 13,51.9
2'F-ANA at 1 2 3 6 8 10 14 15,53.6
2'F-ANA at 1 6 7 8 9 12 13 14 15,83.1
2'F-ANA at 1 3 4 5 6 9 12 13 15,70.8
2'F-ANA at 3 4 10 12 13,319
2'F-ANA at 3 5 7 8 10 11 13 14,51.3
2'F-ANA at 1 2 4 5 7 8 9 10 11 12 15,52.4
2'F-ANA at 7 11 14,223
2'F-ANA at 2 7 10 11 12,172
2'F-ANA at 1 2 3 4 6 11 15,129
2'F-ANA at 1 2 7 8 9 10 14 15,48

# Series 2
# Target: CREB3L2, bZIP domain (human)
# Technique: DHFR protein complementation
# Medium: yeast
# Notes: single substitutions, most at no-binding floor
# Baseline: wild-type JUN-FOS pair
# Direction: higher = stronger binding
# Starting sequence: JUN, bZIP domain (human); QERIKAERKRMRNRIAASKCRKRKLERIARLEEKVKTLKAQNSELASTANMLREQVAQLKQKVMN; partner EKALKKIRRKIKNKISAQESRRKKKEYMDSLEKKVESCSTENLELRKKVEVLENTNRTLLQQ
Change,binding fitness
L52Y,-1.46 natural log
S43R,-1.39 natural log
S47C,-1.38 natural log
Q41N,-1.28 natural log
Q55A,-1.3 natural log
K36D,-1.38 natural log
Q55H,-1.58 natural log
L45H,-1.58 natural log
Q58S,-1.5 natural log
I28C,-1.48 natural log
Q55E,-1.49 natural log
T37S,-1.42 natural log
A40E,-1.46 natural log
E32V,-1.47 natural log
Q55F,-1.42 natural log
A40S,-1.44 natural log
L45R,-1.53 natural log
A46N,-1.55 natural log
A57Q,-1.47 natural log
M51Q,-1.6 natural log
A46G,-1.48 natural log
T37L,-1.3 natural log

# Series 3
# Target: ABI1, truncated, D143A, DHFR fusion (Arabidopsis thaliana)
# Technique: DHFR PCA, deep sequencing
# Medium: yeast
# Notes: methotrexate growth selection, single substitutions
# Together with: (+)-ABA 17 µM
# Baseline: wild-type fitted maximum
# Direction: higher = stronger binding
# Starting sequence: PYL1, truncated, DHFR fusion (Arabidopsis thaliana); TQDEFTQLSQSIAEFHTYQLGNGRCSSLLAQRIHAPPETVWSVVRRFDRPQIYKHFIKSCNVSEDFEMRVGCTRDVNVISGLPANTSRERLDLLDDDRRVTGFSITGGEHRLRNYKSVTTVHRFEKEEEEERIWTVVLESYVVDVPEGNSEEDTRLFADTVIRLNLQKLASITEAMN
Change,relative binding score
F15W,80.1%
L29C,67.9%
E174H,46%
T160I,42.5%
K54C,-20.3%
T6Y,71.7%
A84W,63.6%
T86M,64.4%
R111N,41.1%
G23Q,68%
G71H,12.1%
P37M,41.1%
C25T,84.7%
D95S,40.3%
P37D,39.5%
E67H,77.1%
A30R,79.1%

# Series 4
# Target: CCNA1, cyclin fold, Cln2 fusion (human)
# Technique: yeast growth competition, sequencing
# Medium: yeast
# Notes: weak parent motif
# Baseline: not given
# Direction: higher = stronger binding
# Starting sequence: MICAL3 docking peptide (human); LQLRRQLSFSEDS
Change,normalised enrichment score
LQLRMQLSFSEDS [R5M],0.133
LQLRRQLSFIEDS [S10I],0.0782
LALRRQLSFSEDS [Q2A],0.0279
LQLRRQLNFSEDS [S8N],0.527
LQLRRQLHFSEDS [S8H],0.995
LQLRRQLSSSEDS [F9S],0.293
LKLRRQLSFSEDS [Q2K],0.544
LQLRRQLSFQEDS [S10Q],0.23
LQLRRQLSFSENS [D12N],0.71
LQLRRQLSFSEGS [D12G],0.266
LQLRRQLSESEDS [F9E],-0.0197
LQLRRQLSFSEMS [D12M],0.421
LQLCRQLSFSEDS [R4C],0.0875
LILRRQLSFSEDS [Q2I],0.023
LQLRRQLSFSEQS [D12Q],0.408
LVLRRQLSFSEDS [Q2V],0.46
LQIRRQLSFSEDS [L3I],0.926
LQLRDQLSFSEDS [R5D],0.151
LQLRRQLDFSEDS [S8D],0.849
LQLRRQLSVSEDS [F9V],0.162
LELRRQLSFSEDS [Q2E],0.163
LQLRRQLSFWEDS [S10W],0.203
LQLQRQLSFSEDS [R4Q],0.000284
LQLRRQLSFREDS [S10R],1.29
LQLRWQLSFSEDS [R5W],-0.164

# Series 5
# Target: Centromere-binding protein 1, full length, N-terminal tag (CBF1, Saccharomyces cerevisiae, UniProt P17106, residues 1-351)
# Chain of UniProt P17106 (whole entry, looked up): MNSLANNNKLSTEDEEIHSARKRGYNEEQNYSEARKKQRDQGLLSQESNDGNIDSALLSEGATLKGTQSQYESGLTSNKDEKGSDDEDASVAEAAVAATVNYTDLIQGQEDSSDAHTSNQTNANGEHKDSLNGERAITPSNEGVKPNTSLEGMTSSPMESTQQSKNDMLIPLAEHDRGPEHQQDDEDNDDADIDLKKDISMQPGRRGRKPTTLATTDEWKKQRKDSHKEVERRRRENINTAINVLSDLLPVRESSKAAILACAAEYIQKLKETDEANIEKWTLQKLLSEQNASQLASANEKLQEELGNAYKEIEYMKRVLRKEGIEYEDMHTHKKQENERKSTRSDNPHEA
# Technique: protein-binding microarray
# Molecule type: double-stranded DNA, one strand shown
# Medium: in vitro
# Tested at: 0.8 µM
# Notes: whole 60-bp probe, no competitor
# Direction: higher = stronger binding
Strand,fluorescence intensity
CTATTAATGATTACGCATGTGGATGTGTTCAGTTTCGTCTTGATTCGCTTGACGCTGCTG,550 a.u.
CTATCTATAATAGGTGGTGCCTTCTTGCTTCTTTTCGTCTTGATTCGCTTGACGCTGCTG,495 a.u.
GAAGAAGCTTCTCTCCACATGTCCTTTATATTTTAGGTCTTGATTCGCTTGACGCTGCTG,592 a.u.
CTAGTTCATAACTGGCACATGCTTTTCTTCCTTTTCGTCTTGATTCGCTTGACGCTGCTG,742 a.u.
GAAGAAAAATTTCATCAGACTTTCTTGTAATATTAGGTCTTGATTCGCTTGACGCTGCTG,512 a.u.
CTATGGTATAATATTCACATGGTGCTCTACCGTTTCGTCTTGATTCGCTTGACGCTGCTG,668 a.u.
CCTAACTACTATAAACACGTGAGATAGCTTCGTACAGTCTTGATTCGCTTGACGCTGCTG,3890 a.u.
GAAAATGATTATGGGTGCGTGATCACCAATCTGTAGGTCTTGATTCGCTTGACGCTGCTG,1880 a.u.
GAACACAAAATATCAAACGTGTTGTATTACGGGTAGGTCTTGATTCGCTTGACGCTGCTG,550 a.u.
GAAAAAAAAATGCATTACATCACGTTCCTTGCTTAGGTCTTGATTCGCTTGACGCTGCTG,1090 a.u.
CTAATCCCTATACCAGGTGAGTTGATATATATTTTCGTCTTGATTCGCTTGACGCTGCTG,531 a.u.
TGTACGAAGCTATCAAGCCTGATTATAGTAGTTAGGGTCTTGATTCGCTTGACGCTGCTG,511 a.u.
GAAGAGACCGCAAAACACGTGTACGCACGTAGCTAGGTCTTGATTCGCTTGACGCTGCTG,5560 a.u.
GAATTACGCATCCATCAGTTGCCACCCTCCTACTAGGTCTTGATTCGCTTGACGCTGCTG,499 a.u.
CTATGCAATGATTTAAGCGTGCGTGAAGATAACTTCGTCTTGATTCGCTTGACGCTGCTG,565 a.u.
GAATGGAAATGCGCAGGTGAGCTGATTGATTAATAGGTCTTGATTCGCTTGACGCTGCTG,632 a.u.
CTACATAATATTTTCGTCACCATTATCTTGTTGTTCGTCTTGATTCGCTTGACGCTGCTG,555 a.u.

# Single results of other studies
Molecule,target,test,test system,setting,scale,quantity,value
"PhoQ, residues 284 288 289 292 302 303 TNSAEL","PhoP, residues 12 14 15 18 19 NYFTV (Escherichia coli, UniProt P23836)","Sort-seq, measured: YFP reporter",E. coli,"PhoQ-PhoP variant library, together with: 10 µM Mg2+","baseline: high Mg2+ state, higher = stronger signaling",fold induction,2.21

# Excerpt of the above (series 1):
Modification,mean fluorescence intensity [a.u.]
2'F-ANA at 6 10 11 13 14 15,86.9
2'F-ANA at 2 3 4 5 6 7 9 11 12 14 15,51.1
2'F-ANA at 2 3 6 7 10 12 13 15,383
2'F-ANA at 2 3 4 5 8 9 10 13,51.9
2'F-ANA at 1 2 3 6 8 10 14 15,53.6
2'F-ANA at 1 6 7 8 9 12 13 14 15,83.1
2'F-ANA at 1 3 4 5 6 9 12 13 15,70.8
2'F-ANA at 3 4 10 12 13,319
2'F-ANA at 3 5 7 8 10 11 13 14,51.3
